Published values of several laboratories.
Numbered parts are unrelated; each lists some results of a single study. Changes are numbered by the printed parent chain.

Block 1
Target: CCNB3, cyclin fold, Cln2 fusion (human)
Technique: yeast growth competition, sequencing
Medium: yeast
Notes: weak parent motif
Relative to: not given
Reading: higher = stronger binding
Starting sequence: ORC1 docking peptide (human); PRARKRLELGNLG; partner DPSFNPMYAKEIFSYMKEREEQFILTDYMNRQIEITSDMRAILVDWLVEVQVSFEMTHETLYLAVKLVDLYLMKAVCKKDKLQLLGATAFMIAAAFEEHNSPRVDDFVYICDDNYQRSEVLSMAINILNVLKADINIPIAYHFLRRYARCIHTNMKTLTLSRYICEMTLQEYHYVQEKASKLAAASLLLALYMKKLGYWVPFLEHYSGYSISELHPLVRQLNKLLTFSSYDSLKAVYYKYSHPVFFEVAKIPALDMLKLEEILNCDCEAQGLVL
`HRARKRLELGNLG [P1H]`: “normalised enrichment score” 0.225.
`PRARKRLELGNLY [G13Y]`: “normalised enrichment score” -0.0387.
`PRARKRLELYNLG [G10Y]` — result for “normalised enrichment score”: 1.05.
Under “normalised enrichment score”, `PRARKRDELGNLG [L7D]` is recorded as 0.131.
Under “normalised enrichment score”, `PRARIRLELGNLG [K5I]` is recorded as 0.539.
Under “normalised enrichment score”, `PRARKRLEEGNLG [L9E]` is recorded as -0.169.
Under “normalised enrichment score”, `PRARKRLELGWLG [N11W]` is recorded as 0.2.
`PRARARLELGNLG [K5A]` — result for “normalised enrichment score”: -0.0529.
`PRARKRLEQGNLG [L9Q]`: “normalised enrichment score” 0.299.
`PRARKRLEFGNLG [L9F]` — result for “normalised enrichment score”: 0.903.
`PRARNRLELGNLG [K5N]`: “normalised enrichment score” 0.232.
`PRAAKRLELGNLG [R4A]` — result for “normalised enrichment score”: 0.0747.
`PRARKRLELKNLG [G10K]`: “normalised enrichment score” 0.55.
For `PRARKRLEKGNLG [L9K]`, “normalised enrichment score” read 0.0317.
`PNARKRLELGNLG [R2N]` — result for “normalised enrichment score”: 0.224.
`PRARKRLEDGNLG [L9D]` — result for “normalised enrichment score”: 0.0198.
Under “normalised enrichment score”, `PRARKKLELGNLG [R6K]` is recorded as -0.0139.
For `PRARKRLELGNLV [G13V]`, “normalised enrichment score” read -0.0199.
`PRCRKRLELGNLG [A3C]`: “normalised enrichment score” 0.504.
For `PRARKMLELGNLG [R6M]`, “normalised enrichment score” read 0.244.
`PRARERLELGNLG [K5E]` — result for “normalised enrichment score”: 0.234.

Block 2
Target: POU domain, class 5, transcription factor 1, POU domain (Pou5f1, Mus musculus, UniProt P20263, residues 131-289)
UniProt P20263, sequence (131-289, looked up): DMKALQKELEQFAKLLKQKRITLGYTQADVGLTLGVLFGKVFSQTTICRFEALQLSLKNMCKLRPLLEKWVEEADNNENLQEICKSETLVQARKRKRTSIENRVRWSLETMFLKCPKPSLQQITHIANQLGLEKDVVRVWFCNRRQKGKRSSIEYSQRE
Technique: Spec-seq
Form: double-stranded DNA, one strand shown
Medium: in vitro
Concentration: not given
Notes: whole probe, mean of replicates
Relative to: not given
Reading: lower = stronger binding
All sequences stand within: GAGTCGTCTCGTCAGCAC … CCGTAGAGCACTCAGGTC
`ATCCTGAT` — result for “relative binding energy”: 0.563 ln ratio.
For `ATCCCCAT`, “relative binding energy” read 0.398 ln ratio.
`ATGCCGTT` — result for “relative binding energy”: 0.643 ln ratio.
Under “relative binding energy”, `ATAGTAAT` is recorded as 0.4 ln ratio.
Under “relative binding energy”, `ATGCTTTG` is recorded as 0.653 ln ratio.
`ATGCTCCA`: “relative binding energy” 0.623 ln ratio.
For `ATGCCGAT`, “relative binding energy” read 0.61 ln ratio.
`AAGATAAT`: “relative binding energy” 0.365 ln ratio.
Under “relative binding energy”, `CAAATAAT` is recorded as 0.235 ln ratio.
`ATGCTGCA`: “relative binding energy” 0.553 ln ratio.
`TACCTAAT` — result for “relative binding energy”: 0.721 ln ratio.
`ATAGAGAT`: “relative binding energy” 0.663 ln ratio.
For `ATGCAACA`, “relative binding energy” read -0.0786 ln ratio.

Block 3
Target: ABI1, truncated, D143A, DHFR fusion (Arabidopsis thaliana)
Technique: DHFR PCA, deep sequencing
Medium: yeast
Notes: methotrexate growth selection, single substitutions
Added: (+)-ABA 0 µM
Relative to: wild-type fitted maximum
Reading: higher = stronger binding
Starting sequence: PYL1, truncated, DHFR fusion (Arabidopsis thaliana); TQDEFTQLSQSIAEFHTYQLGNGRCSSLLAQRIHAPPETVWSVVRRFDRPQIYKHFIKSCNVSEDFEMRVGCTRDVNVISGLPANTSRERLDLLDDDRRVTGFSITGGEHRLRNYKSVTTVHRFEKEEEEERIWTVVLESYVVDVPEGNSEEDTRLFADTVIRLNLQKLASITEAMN
For `G108S`, “relative binding score” read 2.77%.
Under “relative binding score”, `S63H` is recorded as 4.09%.
`F66K` — result for “relative binding score”: 3.17%.
`R163S`: “relative binding score” 14.7%.
Under “relative binding score”, `S42P` is recorded as -4.86%.
`G102F`: “relative binding score” -10.7%.
For `R24C`, “relative binding score” read 4.5%.
For `L112D`, “relative binding score” read 4.33%.
For `R45P`, “relative binding score” read 0.234%.
`R111V`: “relative binding score” 9.14%.
`E129P` — result for “relative binding score”: 44.2%.
For `S87L`, “relative binding score” read 33.4%.
`P146Y` — result for “relative binding score”: -5.96%.

Block 4
Target: BATF3, bZIP domain (human)
Technique: DHFR protein complementation
Medium: yeast
Notes: single substitutions, most at no-binding floor
Relative to: wild-type JUN-FOS pair
Reading: higher = stronger binding
Starting sequence: JUN, bZIP domain (human); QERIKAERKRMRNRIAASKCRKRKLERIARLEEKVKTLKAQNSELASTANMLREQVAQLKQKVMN; partner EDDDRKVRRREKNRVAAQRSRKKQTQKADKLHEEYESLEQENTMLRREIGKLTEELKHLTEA
For `A46N`, the binding fitness was 0.349 natural log.
With `L31Y` the binding fitness was 0.177 natural log.
The binding fitness of `T37I` is reported as 0.212 natural log.
With `T37M` the binding fitness was 0.416 natural log.
With `L45W` the binding fitness was -0.017 natural log.
For `K36P`, the binding fitness was -0.172 natural log.
The binding fitness of `V56H` is reported as -0.2 natural log.
For `E44H`, the binding fitness was 0.175 natural log.
The binding fitness of `E32P` is reported as 0.151 natural log.
With `K36T` the binding fitness was 0.153 natural log.
For `E33V`, the binding fitness was 0.0871 natural log.
For `L52C`, the binding fitness was -0.301 natural log.
For `M51E`, the binding fitness was 0.228 natural log.
`A29V` gave a binding fitness of 0.006 natural log.
With `E32H` the binding fitness was 0.147 natural log.
`E33R` gave a binding fitness of 0.171 natural log.
The binding fitness of `I28P` is reported as 0.305 natural log.

Block 5
Target: Ras GTPase-activating protein-binding protein 1, RRM domain (G3BP1, Homo sapiens, UniProt Q13283)
UniProt Q13283, sequence (whole entry, looked up): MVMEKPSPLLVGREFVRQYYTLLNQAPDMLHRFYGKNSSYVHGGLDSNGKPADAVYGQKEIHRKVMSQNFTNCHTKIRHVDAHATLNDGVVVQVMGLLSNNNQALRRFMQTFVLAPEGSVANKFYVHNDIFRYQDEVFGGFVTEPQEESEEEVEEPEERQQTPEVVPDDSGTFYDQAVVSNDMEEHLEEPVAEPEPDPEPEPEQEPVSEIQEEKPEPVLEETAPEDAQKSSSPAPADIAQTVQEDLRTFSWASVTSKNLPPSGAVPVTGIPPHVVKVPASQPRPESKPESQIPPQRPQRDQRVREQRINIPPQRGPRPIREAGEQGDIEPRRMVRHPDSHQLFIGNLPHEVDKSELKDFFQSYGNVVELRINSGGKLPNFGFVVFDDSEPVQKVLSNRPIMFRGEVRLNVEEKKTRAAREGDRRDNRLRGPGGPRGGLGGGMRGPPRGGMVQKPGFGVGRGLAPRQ
Technique: RNA Bind-n-Seq
Form: RNA
Medium: in vitro
Concentration: 1 µM
Notes: whole 134-nt RNA, ends assumed
Added: 150 mM KCl
Relative to: input library
Reading: higher = stronger binding
With `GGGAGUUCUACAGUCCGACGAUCAAGUCCUGUGCUACACAUCGUAUGUACCGAAUCGGGAGGGAAAGGGAAAAAAAGGGAAAGUAUUAUGUUACGCCGUUCGGAUCUGCACUUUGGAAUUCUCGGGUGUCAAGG` the log2 enrichment was 0.495.
`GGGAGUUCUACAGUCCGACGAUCAGUCCUGUGCUACACAUCGUAUGUACCGAAUCGGGGUUUUUGGGGUGGGGUUUGGGGAAAGUAUUAUGUUACGCCGUUCGGAUCUGCACUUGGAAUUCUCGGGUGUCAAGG` gave a log2 enrichment of 0.522.
The log2 enrichment of `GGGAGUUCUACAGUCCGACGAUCCGCAGAAGUCGCGUGUCUAGGUGAGUCGCGGUGGGUCCUCGCUUGCAGUUCAGCGACCACGGUGGGUACCGUUUUUGCGAGGAUUGUUUGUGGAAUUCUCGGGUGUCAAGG` is reported as -0.516.
For `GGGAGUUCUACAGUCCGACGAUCCUCAAGUCCUGUGCUACACAUCGUAUGUACCGAAUCGGAAAAAAAGGAGGAGGAAAGUAUUAUGUUACGCCGUUCGGAUCUGCACUUCCAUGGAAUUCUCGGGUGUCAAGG`, the log2 enrichment was -0.147.
`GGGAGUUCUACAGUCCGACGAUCGUCCUGUGCUACACAUCGUAUGUACCGAAUCGGGAAAAAGGGAAAAAAAGGGUUUGGGAAAGUAUUAUGUUACGCCGUUCGGAUCUGCACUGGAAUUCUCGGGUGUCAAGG` has a log2 enrichment of 0.102.
The log2 enrichment of `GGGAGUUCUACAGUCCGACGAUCCUGUGCUACACAUCGUAUGUACCGAAUCAAAGUGUGUGUGUGUGUAAAGUGUGUGUGUAAAAAAGUAUUAUGUUACGCCGUUCGGAUCUGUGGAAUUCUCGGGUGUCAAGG` is reported as -0.157.
The log2 enrichment of `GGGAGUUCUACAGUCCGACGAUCUGGCCCUGGUGGCAUGCGGGGAGGAAGAGGUGGCCUCAUGGAUCGUGGUGGUCCCGGUGGAAUGUUCAGAGUUGGCCGUGGUGGAGACAGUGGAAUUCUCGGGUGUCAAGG` is reported as 1.83.
The log2 enrichment of `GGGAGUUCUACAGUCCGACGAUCUGGGAGGUGGAUUUUGUUUAUUUUUUUAGCUCAUUUCCAGGGGUGGGCAUUUUUUUUUAAUAUGUGUCAUGAAUAAAGUUGUUUUUGAAAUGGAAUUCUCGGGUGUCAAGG` is reported as 1.54.
With `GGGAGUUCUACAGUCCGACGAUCUCCUGUGCUACACAUCGUAUGUACCGAAUCAAAUUUUUUUAAAUUUUUUUAAAUUUAAAAAAGUAUUAUGUUACGCCGUUCGGAUCUGCAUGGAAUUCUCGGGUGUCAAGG` the log2 enrichment was -0.255.
